Experimental data collected from several papers.
Compare with care: the assays were run in different laboratories. Values joined by “and” are separate records of one study, mostly repeats; a detail may differ. Numbers after ± are the reported error.
RIPK1: Receptor-interacting serine/threonine-protein kinase 1 (RIPK1, Homo sapiens, UniProt Q13546)
ADORA1: Adenosine receptor A1 (ADORA1, Homo sapiens, UniProt P30542)
Bone morphogenetic protein 2: Bone morphogenetic protein 2 (Homo sapiens, UniProt P12643)
ABO G235S/G268A/L266M/R176G: Histo-blood group ABO system transferase (ABO, Homo sapiens, UniProt P16442, G235S/G268A/L266M/R176G)

`CC(C)C[C@H](NC(=O)[C@H](CCC(=O)O)NC(=O)[C@H](CC(=O)O)NC(=O)[C@H](CC(C)C)NC(=O)[C@H](CC(C)C)NC(=O)[C@H](CCCNC(=N)N)NC(=O)[C@H](CC(=O)O)NC(=O)[C@H](CC(C)C)NC(=O)[C@H](CCC(=O)O)NC(=O)[C@H](CO)NC(=O)[C@H](CC(C)C)NC(=O)[C@H](CC(N)=O)NC(=O)CCCCCNC(=O)c1ccc2c(c1)C(=O)OC21c2ccc(N(C)C)cc2Oc2cc(N(C)C)ccc21)C(=O)N[C@@H](CC(N)=O)C(=O)O` — result for Kd: “no binding” (Focal adhesion kinase 1, FAT domain (PTK2, Homo sapiens, UniProt Q05397, I936E/L994E); binding, fluorescence polarization saturation; two-site mutant I936E+L994E).
The Kd of `CC(C)C[C@H](NC(=O)[C@H](CC(C)C)NC(=O)[C@H](CC(=O)O)NC(=O)[C@@H](N)CCCCN)C(=O)N[C@@H](CCC(=O)O)C(=O)N[C@@H](CCC(N)=O)C(=O)N[C@@H](CCCCN)C(=O)N[C@@H](CCCNC(=N)N)C(=O)N[C@@H](C)C(=O)N[C@@H](C)C(=O)N[C@H](C(=O)N[C@@H](CC(=O)O)C(=O)N[C@H](C(=O)N[C@@H](Cc1ccc(O)cc1)C(=O)N[C@@H](CS)C(=O)O)[C@@H](C)O)C(C)C` is reported as 0.084 ± 3e-11 µM (Calreticulin, citrullinated (Calr, Mus musculus, UniProt P14211); SPR; pH 7.4, 25 °C).
The Kd of `CC(=O)N[C@@H]1[C@@H](O[C@@H]2O[C@H](C(=O)O)[C@@H](O[C@@H]3O[C@H](COS(=O)(=O)O)[C@@H](OS(=O)(=O)O)[C@H](O[C@@H]4O[C@H](C(=O)O)[C@@H](OS(=O)(=O)O)[C@H](OS(=O)(=O)O)[C@H]4OS(=O)(=O)O)[C@H]3NC(C)=O)[C@H](OS(=O)(=O)O)[C@H]2OS(=O)(=O)O)[C@H](OS(=O)(=O)O)[C@@H](COS(=O)(=O)O)O[C@H]1n1ccnn1` is reported as 0.35 µM (Metalloproteinase inhibitor 3 (Homo sapiens, UniProt P35625); ligand displacement, FP).
`Cc1cc(N2CC[C@@](C#N)(C3CC3)C2=O)cc(NC(=O)Cc2ccccc2)n1` gave a Kd of 0.028 µM (EPRS1 (Homo sapiens, UniProt P07814); binding, MST).
With `Cc1ccc(Oc2nc3cc(-c4ccc5c(ccn5C)c4)c(Cl)cc3[nH]2)cc1C(=O)O` the Kd was 0.078 µM (PRKAA1/PRKAB1, phosphorylated; with gamma1 (Homo sapiens, UniProt Q13131+Q9Y478); binding, circular dichroism titration; 20 °C, α1β1γ1 complex).
`CSCC[C@H](NC(=O)[C@H](CC(C)C)NC(=O)[C@H](CCCCNC(C)=O)NC(=O)[C@H](CCCCN)NC(=O)[C@H](Cc1c[nH]cn1)NC(=O)[C@H](CCCNC(=N)N)NC(=O)[C@H](CO)NC(=O)[C@@H](NC(=O)[C@H](CO)NC(=O)[C@H](CCC(N)=O)NC(=O)CNC(=O)[C@H](CCCCN)NC(=O)[C@@H](N)CCCCN)[C@@H](C)O)C(=O)N[C@@H](Cc1ccccc1)C(=O)N[C@@H](CCCCN)C(=O)N[C@H](C(=O)N[C@@H](CCC(=O)O)C(=O)NCC(=O)O)[C@@H](C)O` gave a Kd of 2.7 µM (NAD-dependent protein deacetylase (cobB, Thermotoga maritima, UniProt Q9WYW0); acetylated p53 peptide binding, intrinsic tyrosine fluorescence; pH 9.2, target 0.4 µM).
`O=C(Cc1cccc(C(F)(F)F)c1)Nc1cc(Oc2ccc3nc(NC(=O)C4CC4)sc3c2CO)ccc1F` gave a Kd of 0.012 µM (RIPK1; binding, competition with immobilised ligand).
`O=C(O)C(CO)NCc1cc(Cl)c(OCc2cccc(-c3ccccc3)c2Br)cc1OCc1cccnc1` (centres unmarked) gave a Kd of 3.67e-05 µM (CD274 (Homo sapiens, UniProt Q9NZQ7); binding, SPR).
For `O=P(O)(O)O[C@@H]1[C@@H](O)[C@H](O)[C@H](O)[C@H](O)[C@H]1OP(=O)(O)O`, the Kd was 0.617 µM (Inositol 1,4,5-trisphosphate-gated calcium channel ITPR1, IP3-binding core (Itpr1, Rattus norvegicus, UniProt P29994, R504Q); binding, radioligand competition binding; IP3-binding core R504Q, CLM medium, together with: [3H]IP3).
With `CCCn1c(=O)c2[nH]c(-c3ccc(OCC(=O)NCCNC(=O)CCCCCNS(=O)(=O)c4ccc(C5=c6cc7c8c(c6Oc6c5cc5c9c6CCCN9CCC5)CCC[N+]=8CCC7)c(S(=O)(=O)[O-])c4)cc3)nc2n(CCC)c1=O` the Kd was 0.813 µM (ADORA1; CRE reporter gene, antagonist; CHO-A1; Gs-mediated enhancement, together with: NECA and forskolin).
`O=C(Cc1cccc(C(F)(F)F)c1)Nc1cc(Oc2c(F)cc3nc(NC(=O)C4CC4)sc3c2F)ccc1F` has a Kd of 0.096 µM (RIPK1; binding, competition with immobilised ligand).
The Kd of `CC(=O)N[C@@H]1[C@@H](O[C@@H]2O[C@H](C(=O)O)[C@@H](O[C@@H]3O[C@H](COS(=O)(=O)O)[C@@H](OS(=O)(=O)O)[C@H](O[C@@H]4O[C@H](C(=O)O)[C@@H](OS(=O)(=O)O)[C@H](OS(=O)(=O)O)[C@H]4OS(=O)(=O)O)[C@H]3NC(C)=O)[C@H](OS(=O)(=O)O)[C@H]2OS(=O)(=O)O)[C@H](OS(=O)(=O)O)[C@@H](COS(=O)(=O)O)O[C@H]1N=[N+]=[N-]` is reported as 2.3 µM (Bone morphogenetic protein 2; ligand displacement, FP).
For `Cc1c2ccnc(C(=O)N[C@H](C)CN(C)C)c2cc2c3cc(OCCCN4CCN(C)CC4)ccc3n(C)c12`, the Kd was over 20 µM (d(G4C2)8 DNA; binding, microscale thermophoresis; no saturable binding).
The Kd of `Nc1ncnc2c1ncn2[C@@H]1O[C@H](CSCC[C@H](N)C(=O)O)[C@@H](O)[C@H]1O` is reported as 7.5 ± 0.9 µM (Ribosomal RNA large subunit methyltransferase J (rlmJ, Escherichia coli, UniProt P37634)).
The Kd of `OC(Cc1cc(-c2ccc(C(O)C(F)(F)F)s2)sc1-c1ccc(-c2sc(-c3ccc(C(O)C(F)(F)F)s3)cc2CC(O)C(F)(F)F)s1)C(F)(F)F` (centres unmarked) is reported as 0.07 ± 0.03 µM (Microtubule-associated protein tau, 0N4R isoform, aggregated (MAPT, Homo sapiens, UniProt P10636); binding, fluorescence; 20% sucrose tau fraction).
`CCCCCCCCO[C@@H]1O[C@H](CO)[C@H](O)[C@H](O)[C@H]1O[C@@H]1O[C@@H](C)[C@@H](O)[C@@H](O)[C@@H]1O` has a Kd of 28 ± 1 µM (ABO G235S/G268A/L266M/R176G; methyl-TROSY NMR titration lineshape; two-state binding model, together with: acceptor binding, saturating UDP).
`C[n+]1cc(NC(=O)c2ccc3ccc4ccc(C(=O)Nc5cc6ccccc6[n+](C)c5)nc4c3n2)cc2ccccc21` gave a Kd of 0.0021 µM (telomeric antiparallel G4 DNA; binding, native ESI-MS; 100 mM trimethylammonium acetate; 1 mM KCl).
`CC(=O)N[C@@H]1[C@@H](O[C@@H]2O[C@H](C(=O)O)[C@@H](O[C@@H]3O[C@H](CO)[C@@H](OS(=O)(=O)O)[C@H](O[C@@H]4O[C@H](C(=O)O)[C@@H](OS(=O)(=O)O)[C@H](OS(=O)(=O)O)[C@H]4OS(=O)(=O)O)[C@H]3NC(C)=O)[C@H](OS(=O)(=O)O)[C@H]2OS(=O)(=O)O)[C@H](OS(=O)(=O)O)[C@@H](CO)O[C@H]1N=[N+]=[N-]` gave a Kd of 23 µM (Bone morphogenetic protein 2; ligand displacement, FP).
With `CCCn1c(=O)c2[nH]c(-c3ccc(OCC(=O)NCCNC(=O)CCCCCCCNS(=O)(=O)c4cccc5c(N(C)C)cccc45)cc3)nc2n(CCC)c1=O` the Kd was 0.038 µM (ADORA1; CRE reporter gene, antagonist; CHO-A1; Gs-mediated enhancement, together with: NECA and forskolin).
For `COC(=O)c1c(Oc2ccc(F)c(NC(=O)Cc3cccc(C(F)(F)F)c3)c2)ccc2nc(NC(=O)C3CC3)sc12`, the Kd was 0.34 µM (RIPK1; binding, competition with immobilised ligand).
`CNc1ccccc1C(=O)O[C@H]1C[C@H](n2cnc3c(N)ncnc32)O[C@@H]1COP(=O)(O)OP(=O)(O)O` has a Kd of 6.75 ± 0.54 µM (Unconventional myosin-Va (Gallus gallus, UniProt Q02440, D297C/G292C/I296C/S293C/V295G); stopped-flow FRET; 4 °C, together with: EDTA 4 mM).
For `CC(=O)N[C@H]1[C@@H](OP(=O)(O)OP(=O)(O)OC[C@H]2O[C@@H](n3ccc(=O)[nH]c3=O)[C@H](O)[C@@H]2O)O[C@H](CO)[C@@H](O)[C@@H]1O`, the Kd was 374 ± 13 µM (ABO (Homo sapiens, UniProt P16442); binding, methyl-TROSY NMR titration; pH 6.8, 298 K, apo enzyme, together with: Mg2+).
With `CC(=O)N[C@@H]1[C@@H](O[C@@H]2O[C@H](C(=O)O)[C@@H](O[C@@H]3O[C@H](COS(=O)(=O)O)[C@@H](OS(=O)(=O)O)[C@H](O[C@@H]4O[C@H](C(=O)O)[C@@H](O[C@@H]5O[C@H](COS(=O)(=O)O)[C@@H](OS(=O)(=O)O)[C@H](O[C@@H]6O[C@H](C(=O)O)[C@@H](OS(=O)(=O)O)[C@H](OS(=O)(=O)O)[C@H]6OS(=O)(=O)O)[C@H]5NC(C)=O)[C@H](OS(=O)(=O)O)[C@H]4OS(=O)(=O)O)[C@H]3NC(C)=O)[C@H](OS(=O)(=O)O)[C@H]2OS(=O)(=O)O)[C@H](OS(=O)(=O)O)[C@@H](COS(=O)(=O)O)O[C@H]1N=[N+]=[N-]` the Kd was 0.093 µM (Fibroblast growth factor 2 (Homo sapiens, UniProt P09038); ligand displacement, FP).
Under Kd, `CN(C)c1cc2ccccc2c(N)n1` is recorded as “not detected” (CUGBP Elav-like family member 1, RRM1/2 domains (CELF1, Homo sapiens, UniProt Q92879, K117A); isothermal titration calorimetry; 25 °C).
`C=CCCCCCCO[C@H]1O[C@H](CO)[C@H](O)[C@H](O[C@@H]2O[C@H](CO)[C@H](O)[C@H](O)[C@H]2O[C@@H]2O[C@@H](C)[C@@H](O)[C@@H](O)[C@@H]2O)[C@H]1NC(C)=O` gave a Kd of 2900 ± 200 µM (ABO G235S/G268A/L266M/R176G; methyl-TROSY NMR titration lineshape analysis; apo enzyme).
The Kd of `COc1cc2c(cc1-c1c(C)noc1C)ncc1[nH]c(=O)n([C@H](C)c3ccccn3)c12` is reported as 94 ± 18 µM (Bromodomain factor 2 (Trypanosoma brucei brucei, UniProt Q38AM1); ITC; 15 °C).
With `OC1(C#Cc2ccccc2)CCCCC1` the Kd was 207 µM (Microphthalmia-associated transcription factor (Homo sapiens, UniProt O75030); binding, NMR).
The Kd of `Cc1c(OCc2ccc(Cl)c(Cl)c2)ccc(-c2cc[nH]n2)c1O` is reported as 144 µM (Inducible T-cell costimulator (Homo sapiens, UniProt Q9Y6W8); binding, MST; pH 7.4).
For `O=C(/C=C/c1ccc(O)c(O)c1)NCCCCCCCC[P+](c1ccccc1)(c1ccccc1)c1ccccc1`, the Kd was about 10 µM (Albumin (ALB, Homo sapiens, UniProt P02768); fluorescence quenching; range from 25 °C, order over all temperatures).
`C[C@H]1Cc2cc(-c3ccnc4ncnn34)ccc2O1` has a Kd of 5 µM (WD repeat-containing protein 55 (WDR55, Homo sapiens, UniProt Q9H6Y2)).
With `Cc1cc(N2CC[C@](C#N)(C3(C)CC3)C2=O)cc(C(=O)NCc2cc(F)cc(-c3cnn(C)c3)c2)n1` the Kd was 1.79 µM and 1.16 µM (Bifunctional glutamate/proline--tRNA ligase, prolyl-tRNA synthetase domain (EPRS1, Homo sapiens, UniProt P07814); binding, microscale thermophoresis).
`CCCn1c(=O)c2[nH]c(-c3ccc(OCC(=O)NCCNS(=O)(=O)c4cccc5c(N(C)C)cccc45)cc3)nc2n(CCC)c1=O` gave a Kd of 0.0427 µM (ADORA1; CRE reporter gene, antagonist, parallel shift; CHO-A1; Gi-mediated inhibition, together with: NECA and forskolin).
